# Results pooled from the literature.
# Each line is one published result; not all experiments were run side by side. Numbers after ± are the reported error.
# Succinate dehydrogenase complex: Succinate dehydrogenase complex (Sus scrofa, UniProt A5GZW8+D0VWV4+Q007T0+Q0QF01)
# Chain of UniProt D0VWV4 (whole entry, looked up): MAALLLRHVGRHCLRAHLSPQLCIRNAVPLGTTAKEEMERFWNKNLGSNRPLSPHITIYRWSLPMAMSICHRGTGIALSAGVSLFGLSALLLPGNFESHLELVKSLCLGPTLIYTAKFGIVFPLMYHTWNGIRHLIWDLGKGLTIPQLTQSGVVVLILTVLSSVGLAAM
# Chain of UniProt Q0QF01 (whole entry, looked up): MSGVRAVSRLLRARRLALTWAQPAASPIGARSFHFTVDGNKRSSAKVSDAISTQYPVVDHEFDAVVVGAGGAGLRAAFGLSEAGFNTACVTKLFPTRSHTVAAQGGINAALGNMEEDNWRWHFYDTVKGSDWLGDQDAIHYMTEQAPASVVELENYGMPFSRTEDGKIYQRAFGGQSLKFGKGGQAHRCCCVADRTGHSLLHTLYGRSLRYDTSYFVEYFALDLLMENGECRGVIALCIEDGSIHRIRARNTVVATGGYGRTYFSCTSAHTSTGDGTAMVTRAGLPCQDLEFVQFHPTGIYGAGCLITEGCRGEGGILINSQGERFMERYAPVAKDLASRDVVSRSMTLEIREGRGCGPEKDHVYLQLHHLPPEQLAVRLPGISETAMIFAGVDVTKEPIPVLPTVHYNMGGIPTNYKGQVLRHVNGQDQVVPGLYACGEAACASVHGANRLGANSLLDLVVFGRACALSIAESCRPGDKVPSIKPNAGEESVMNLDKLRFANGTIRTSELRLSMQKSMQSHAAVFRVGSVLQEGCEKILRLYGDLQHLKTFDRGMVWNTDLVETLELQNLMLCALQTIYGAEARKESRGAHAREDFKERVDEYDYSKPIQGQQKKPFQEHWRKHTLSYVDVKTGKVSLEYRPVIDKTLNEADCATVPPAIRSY
# Chain of UniProt A5GZW8 (whole entry, looked up): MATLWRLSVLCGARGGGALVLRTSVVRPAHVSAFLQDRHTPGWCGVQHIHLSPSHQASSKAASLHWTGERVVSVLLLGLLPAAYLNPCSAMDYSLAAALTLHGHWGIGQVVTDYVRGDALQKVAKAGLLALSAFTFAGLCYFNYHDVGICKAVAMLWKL
# Chain of UniProt Q007T0 (whole entry, looked up): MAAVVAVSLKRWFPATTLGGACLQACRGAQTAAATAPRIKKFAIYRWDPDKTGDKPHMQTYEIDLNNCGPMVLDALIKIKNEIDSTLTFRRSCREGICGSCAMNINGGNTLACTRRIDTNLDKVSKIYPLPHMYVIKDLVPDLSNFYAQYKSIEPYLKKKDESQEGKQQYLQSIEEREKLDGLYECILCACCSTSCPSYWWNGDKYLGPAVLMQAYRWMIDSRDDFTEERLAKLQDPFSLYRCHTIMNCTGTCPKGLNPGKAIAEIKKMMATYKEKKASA
# CDK9 with cyclin T1: Cyclin-dependent kinase 9, with cyclin T1 (CDK9, Homo sapiens, UniProt P50750)
# Chain of UniProt P50750 (whole entry, looked up): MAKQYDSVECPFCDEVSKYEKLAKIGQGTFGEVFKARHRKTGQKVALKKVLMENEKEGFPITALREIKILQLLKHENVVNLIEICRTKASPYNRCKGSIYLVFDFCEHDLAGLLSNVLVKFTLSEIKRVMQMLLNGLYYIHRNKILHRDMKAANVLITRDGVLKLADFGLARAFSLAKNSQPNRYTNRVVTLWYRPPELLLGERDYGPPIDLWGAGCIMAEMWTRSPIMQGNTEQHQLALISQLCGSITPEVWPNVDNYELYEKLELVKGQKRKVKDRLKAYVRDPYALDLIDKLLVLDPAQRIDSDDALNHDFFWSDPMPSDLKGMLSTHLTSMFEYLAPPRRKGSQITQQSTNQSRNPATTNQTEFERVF
# AGER: Advanced glycosylation end product-specific receptor (AGER, Homo sapiens, UniProt Q15109)
# Chain of UniProt Q15109 (whole entry, looked up): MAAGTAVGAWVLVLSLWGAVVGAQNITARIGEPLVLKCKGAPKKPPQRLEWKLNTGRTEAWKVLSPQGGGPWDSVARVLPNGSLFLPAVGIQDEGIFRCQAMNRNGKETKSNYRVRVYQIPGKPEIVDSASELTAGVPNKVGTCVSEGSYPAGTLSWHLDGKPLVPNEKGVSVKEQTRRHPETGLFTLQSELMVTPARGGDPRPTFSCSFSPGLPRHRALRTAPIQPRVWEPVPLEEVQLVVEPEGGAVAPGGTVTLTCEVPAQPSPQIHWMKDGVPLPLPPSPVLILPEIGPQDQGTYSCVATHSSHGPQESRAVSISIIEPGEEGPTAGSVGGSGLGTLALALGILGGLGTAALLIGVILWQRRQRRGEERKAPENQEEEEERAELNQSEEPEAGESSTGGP
# GSTO1: Glutathione S-transferase omega-1 (GSTO1, Homo sapiens, UniProt P78417)
# Chain of UniProt P78417 (whole entry, looked up): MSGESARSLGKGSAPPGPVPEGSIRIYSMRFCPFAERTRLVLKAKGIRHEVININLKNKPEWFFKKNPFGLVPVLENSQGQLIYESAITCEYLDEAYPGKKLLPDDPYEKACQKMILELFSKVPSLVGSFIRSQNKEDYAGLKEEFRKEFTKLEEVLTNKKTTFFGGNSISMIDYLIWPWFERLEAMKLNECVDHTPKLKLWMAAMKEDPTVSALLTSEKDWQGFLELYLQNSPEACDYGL
# FLT3 ITD: Receptor-type tyrosine-protein kinase FLT3 (FLT3, Homo sapiens, UniProt P36888, ITD)
# lecA: PA-I galactophilic lectin (lecA, Pseudomonas aeruginosa, UniProt Q05097)
# Chain of UniProt Q05097 (whole entry, looked up): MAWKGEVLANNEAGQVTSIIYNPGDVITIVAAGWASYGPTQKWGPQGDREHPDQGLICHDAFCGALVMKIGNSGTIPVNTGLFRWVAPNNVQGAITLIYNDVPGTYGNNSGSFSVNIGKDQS
# GLO1: Lactoylglutathione lyase (GLO1, Homo sapiens, UniProt Q04760)
# Chain of UniProt Q04760 (whole entry, looked up): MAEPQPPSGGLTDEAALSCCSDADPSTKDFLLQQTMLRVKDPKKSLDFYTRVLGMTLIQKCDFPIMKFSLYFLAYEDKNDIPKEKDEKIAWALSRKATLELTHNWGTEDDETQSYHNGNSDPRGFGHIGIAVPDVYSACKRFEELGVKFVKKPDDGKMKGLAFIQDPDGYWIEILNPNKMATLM
# Chain of UniProt Q9Y3R4 (whole entry, looked up): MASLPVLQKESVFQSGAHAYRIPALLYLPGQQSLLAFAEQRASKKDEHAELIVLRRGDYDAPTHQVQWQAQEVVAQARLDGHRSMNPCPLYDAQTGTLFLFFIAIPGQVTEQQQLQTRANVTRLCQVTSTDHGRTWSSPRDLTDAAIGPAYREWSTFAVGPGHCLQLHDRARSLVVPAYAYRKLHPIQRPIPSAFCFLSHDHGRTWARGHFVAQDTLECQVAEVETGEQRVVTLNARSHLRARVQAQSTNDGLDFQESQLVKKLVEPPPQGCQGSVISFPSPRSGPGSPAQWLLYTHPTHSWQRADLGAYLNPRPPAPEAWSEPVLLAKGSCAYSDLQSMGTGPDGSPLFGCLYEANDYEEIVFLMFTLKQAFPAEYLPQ
# Chain of UniProt P19643 (whole entry, looked up): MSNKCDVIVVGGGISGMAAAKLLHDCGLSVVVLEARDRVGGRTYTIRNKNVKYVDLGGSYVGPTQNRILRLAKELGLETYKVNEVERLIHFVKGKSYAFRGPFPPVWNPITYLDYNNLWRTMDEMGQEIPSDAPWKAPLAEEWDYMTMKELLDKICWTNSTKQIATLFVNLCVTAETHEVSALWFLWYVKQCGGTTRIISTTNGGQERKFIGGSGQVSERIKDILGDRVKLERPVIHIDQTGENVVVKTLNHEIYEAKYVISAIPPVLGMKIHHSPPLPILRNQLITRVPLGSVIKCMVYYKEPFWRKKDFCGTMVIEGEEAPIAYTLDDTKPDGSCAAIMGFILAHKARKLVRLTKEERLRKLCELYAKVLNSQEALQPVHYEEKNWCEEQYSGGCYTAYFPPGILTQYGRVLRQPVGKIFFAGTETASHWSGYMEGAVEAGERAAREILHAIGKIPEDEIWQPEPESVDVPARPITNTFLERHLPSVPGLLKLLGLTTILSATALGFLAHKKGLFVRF
# Chain of UniProt Q99873 (whole entry, looked up): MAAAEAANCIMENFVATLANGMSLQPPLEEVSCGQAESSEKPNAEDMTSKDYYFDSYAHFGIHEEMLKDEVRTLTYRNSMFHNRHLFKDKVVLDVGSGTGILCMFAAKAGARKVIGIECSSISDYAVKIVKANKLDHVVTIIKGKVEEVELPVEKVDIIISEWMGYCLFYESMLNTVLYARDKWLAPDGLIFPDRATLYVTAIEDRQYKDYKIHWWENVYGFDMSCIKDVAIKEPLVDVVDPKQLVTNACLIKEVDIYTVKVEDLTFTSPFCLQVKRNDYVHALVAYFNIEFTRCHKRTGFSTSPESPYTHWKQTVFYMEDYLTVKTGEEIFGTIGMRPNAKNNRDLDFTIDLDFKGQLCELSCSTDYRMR
Compound,target,test,system,setting,how to read,inhibition
"CC(=O)C12NC(C)(C)CC1(C)C(=O)C1=C2c2c(c3c4n2C(C)(C)CC2=C4C4(CC(C)(C)NC(C)(C4)C2=O)CC3(C)C)C(=O)C(C)(C)N1 (single isomer, unassigned; (+))","KCNA2 (Homo sapiens, UniProt P16389)","ion current, inhibitor, patch clamp",HEK-293T,10 µM,,72.5%
O=C(Nc1ccccc1Nc1ccccc1)c1cccnc1Br,Succinate dehydrogenase complex,"enzyme activity, double-antibody sandwich ELISA",,2 µM,,25.6%
Clc1ccc2ccc3[n+](c2c1)[Ir-3]12([c]4ccccc4-3)([c]3ccccc3-c3ccc4ccc(Cl)cc4[n+]31)[n+]1ccccc1-c1cccc[n+]12.F[P-](F)(F)(F)(F)F,CDK9 with cyclin T1,,,1 µM,,72.4%
COc1ccc(NC(=O)c2cc3ccc(C)cc3s2)cc1,AGER,"binding to AGE-BSA, competitive ELISA",,"100 µM, 60 min",,37%
O=C(CCl)N(CCNC(=O)C(F)(F)F)c1ccc([N+](=O)[O-])cc1,GSTO1,"probe labelling, inhibitor, competitive ABPP",MDA-MB-435,"1 µM, 1 h, 10% serum",,100%
O=C(Nc1ccc(Oc2ccc(Cl)cc2)cc1)c1cc2ccc(Cl)cc2s1,AGER,"binding to AGE-BSA, competitive ELISA",,"100 µM, 60 min",,≤ 77%
O=C(Nc1ccccc1Nc1ccccc1)c1nccnc1Cl,Succinate dehydrogenase complex,"enzyme activity, double-antibody sandwich ELISA",,8 µM,,48.9%
Oc1ccc([C@H]2Oc3cc(O)cc(O)c3C[C@H]2O)cc1,"maltase, rat","enzyme activity, inhibitor",rat intestinal brush border vesicles,10 µM,,25.5%
FC(F)(F)c1n[nH]cc1-c1nc2ccc3[nH]ncc3c2c2c1CCCCC2,FLT3 ITD,"enzyme activity, inhibitor, ADP detection",,0.1 µM,,87%
Brc1ccccc1-c1nnc(CSc2nnnn2-c2ccccc2)o1,"HTR2B (Homo sapiens, UniProt P41595)","ligand displacement, radioligand",,10 µM,,67%
COc1ccccc1-c1ccncc1C(=O)Nc1nnc(OCc2ccc(Cl)cc2)s1,"RECQL5 (Homo sapiens, UniProt O94762)","ATPase activity, inhibitor, ADP-Glo",,up to 30 µM,,no inhibition
Nc1nc2cc(CC[C@H]3C[C@@H](n4ccc5c(N)ncnc54)[C@H](O)[C@@H]3O)ccc2cc1Br,"PRMT1 (Homo sapiens, UniProt Q99873)","enzyme activity, inhibitor",,10 µM,,< 15%
Cc1nn(C)cc1-c1nc2ccc3[nH]ncc3c2c2c1CCCC2,FLT3 ITD,"enzyme activity, inhibitor, ADP detection",,0.1 µM,,21%
O=C(c1ccc(O)c(O)c1)c1ccc(O)cc1O,lecA,"binding inhibitor, fluorescence polarization",,"4000 µM, 4 mM catechol, together with: Cy5 galactoside tracer",,14 ± 5%
O=C(Nc1ccc(-c2ccccc2)cc1)c1cc2ccc(Cl)cc2s1,AGER,"binding to AGE-BSA, competitive ELISA",,"100 µM, 60 min",,0%
C#CCSc1nc(Sc2nnnn2-c2ccccc2)c2nnn(Cc3ccccc3Cl)c2n1,CDK9 with cyclin T1,"enzyme activity, inhibitor",,10 µM,,< 15%
Oc1ccc(CCC(O)CC(O)CCc2ccc(O)cc2)cc1 (stereo not drawn),"Maob (Rattus norvegicus, UniProt P19643)","enzyme activity, inhibitor",,20 µg/mL,,17.8 ± 1.2%
CC(=O)N[C@H]1NC[C@H](C(=O)O)[C@H](O)[C@@H]1O,"Sialidase-2 (Homo sapiens, UniProt Q9Y3R4)","enzyme activity, inhibitor, fluorescence",,"300 µM, pH 6",,56%
CC[C@H](C)[C@H](NC(=O)[C@H]([C@@H](C)CC)N(C)C(C)=O)C(=O)N[C@H](C(=O)N[C@@H](CC(C)C)C(=O)[C@@]1(C)CO1)[C@@H](C)O,"Proteasome subunit beta type-5 (Babesia divergens, UniProt A0AAD9GDK3)",proteasome activity,"Babesia divergens, parasite lysate","1 µM, together with: Suc-LLVY-AMC substrate",,> 90%
NC(=O)c1ccc(C(=O)NOCc2ccc(Sc3cccc(Cl)c3)c(C(F)(F)F)c2)cc1,"SIRT2 (Homo sapiens, UniProt Q8IXJ6)","cell-free assay, inhibitor",,100 µM,,21%
O=C(NC1CCCCC1)C(c1ccccc1)N(C(=O)CCl)c1ccc(F)cc1 (racemic),GSTO1,"probe labelling, gel-based competitive ABPP",MDA-MB-435 soluble proteome,"100 nM, together with: SE-Rh probe",,85%
COc1ncccc1C(=O)Nc1ccccc1Nc1ccccc1,Succinate dehydrogenase complex,"enzyme activity, double-antibody sandwich ELISA",,0.5 µM,,22.3%
O=C(Nc1ccc(F)cc1)c1cc2ccc(Cl)cc2s1,AGER,"binding to AGE-BSA, competitive ELISA",,"100 µM, 60 min",,0%
O=C(NC1CCCCC1)C(c1ccccn1)N(C(=O)CCl)c1cccc(Cl)c1 (racemic),GSTO1,"probe labelling, gel-based competitive ABPP",MDA-MB-435 soluble proteome,"100 nM, together with: SE-Rh probe",,100%
O=C(Nc1ccccc1Nc1ccccc1)c1cccnc1F,Succinate dehydrogenase complex,"enzyme activity, double-antibody sandwich ELISA",,0.5 µM,,5.05%
O=C(Nc1ccc(OCCN2CCCC2)cc1)c1cc2ccc(Cl)cc2s1,AGER,"AGE2-BSA binding, inhibitor, competitive ELISA",,"100 µM, 60 min, together with: AGE2-BSA",,97%
CC1CCc2c(c(-c3c[nH]nc3C(F)(F)F)nc3ccc4[nH]ncc4c23)C1 (stereo not drawn),FLT3 ITD,"enzyme activity, inhibitor, ADP detection",,0.1 µM,,77%
NS(=O)(=O)c1ccc(/N=N/c2cc(C(=O)O)c(O)c3ccccc23)cc1,GLO1,"enzyme activity, inhibitor",,25 µM,,77.5%
O=C(Nc1cc(Cl)ccc1O)c1nn2c(C(F)(F)F)cc(-c3cc(Br)cs3)nc2c1Br,"Hepatitis A virus cellular receptor 2, part phosphatidylserine interaction (Homo sapiens, UniProt Q8TDQ0)","phosphatidylserine binding, flow cytometry",apoptotic Jurkat,2.5 µM,,inhibited
CN(C)S(=O)(=O)c1cc(C(=O)O)ccc1NCCCCCCCC(F)(F)F,"SLC12A5 (Homo sapiens, UniProt Q9H2X9)",thallium influx,HEK293 transfected with SLC12A5,10 µM,relative to: DMSO control,4.6 ± 6.9%
O=C(Nc1ccccc1Nc1ccccc1)c1cccnc1C(F)(F)F,Succinate dehydrogenase complex,"enzyme activity, double-antibody sandwich ELISA",,1 µM,,25.1%
NS(=O)(=O)c1ccc(/N=N/c2ccc(O)c3ncccc23)cc1,GLO1,"enzyme activity, inhibitor",,25 µM,,100%
COc1cc(C(=O)O[C@@H]2Cc3c(O)cc(O)cc3O[C@@H]2c2ccc(O)c(O)c2)cc(O)c1O,"maltase, rat","enzyme activity, inhibitor",rat intestinal brush border vesicles,10 µM,,68.7%
Cc1ccc(N(C(=O)c2cc3ccc(Cl)cc3s2)c2ccc(C)cc2)cc1,AGER,"binding to AGE-BSA, competitive ELISA",,"100 µM, 60 min",,0%
O=C(NC1CCCCC1)C(c1ccccn1)N(C(=O)CCl)c1ccc(F)c(F)c1 (racemic),GSTO1,competitive ABPP,MDA-MB-435,"1 µM, 12 h, 10% serum",,95%
CC(=O)c1ccc(O)c(O)c1,lecA,"binding inhibitor, fluorescence polarization",,"4000 µM, 4 mM catechol, together with: Cy5 galactoside tracer",,11 ± 3%

# For quick reference, copied from above:
Compound,target,test,system,setting,how to read,inhibition
Cc1ccc(N(C(=O)c2cc3ccc(Cl)cc3s2)c2ccc(C)cc2)cc1,AGER,"binding to AGE-BSA, competitive ELISA",,"100 µM, 60 min",,0%
NC(=O)c1ccc(C(=O)NOCc2ccc(Sc3cccc(Cl)c3)c(C(F)(F)F)c2)cc1,"SIRT2 (Homo sapiens, UniProt Q8IXJ6)","cell-free assay, inhibitor",,100 µM,,21%
